Experimental data collected from several papers.
Parts stem from different laboratories: compare values within a part only.
Sequence of UniProt P49336 (whole entry, looked up): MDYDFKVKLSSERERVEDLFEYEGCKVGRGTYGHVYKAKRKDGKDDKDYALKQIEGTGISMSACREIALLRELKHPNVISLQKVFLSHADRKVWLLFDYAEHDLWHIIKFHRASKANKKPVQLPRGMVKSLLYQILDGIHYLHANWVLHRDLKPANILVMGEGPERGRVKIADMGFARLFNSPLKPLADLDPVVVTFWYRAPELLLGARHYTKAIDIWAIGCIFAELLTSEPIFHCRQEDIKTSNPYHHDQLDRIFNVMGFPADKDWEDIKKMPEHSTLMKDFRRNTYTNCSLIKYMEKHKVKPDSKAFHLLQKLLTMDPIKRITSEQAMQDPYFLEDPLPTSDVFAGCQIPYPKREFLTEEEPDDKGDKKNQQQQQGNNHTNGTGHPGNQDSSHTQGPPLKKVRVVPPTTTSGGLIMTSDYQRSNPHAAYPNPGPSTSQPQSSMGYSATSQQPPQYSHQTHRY
Sequence of UniProt Q9NWZ3 (whole entry, looked up): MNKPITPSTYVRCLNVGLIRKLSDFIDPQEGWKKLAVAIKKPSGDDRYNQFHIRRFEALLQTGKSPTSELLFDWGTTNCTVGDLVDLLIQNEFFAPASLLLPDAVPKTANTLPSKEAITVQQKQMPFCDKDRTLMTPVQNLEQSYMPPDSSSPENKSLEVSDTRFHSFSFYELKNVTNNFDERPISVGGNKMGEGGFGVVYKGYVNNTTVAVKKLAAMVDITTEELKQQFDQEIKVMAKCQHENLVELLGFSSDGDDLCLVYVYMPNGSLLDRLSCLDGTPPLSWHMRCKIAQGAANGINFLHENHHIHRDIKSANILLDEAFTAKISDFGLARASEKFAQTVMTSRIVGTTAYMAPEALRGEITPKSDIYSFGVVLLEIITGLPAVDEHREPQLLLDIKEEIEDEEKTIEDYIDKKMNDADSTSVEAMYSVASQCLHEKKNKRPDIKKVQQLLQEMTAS
Sequence of UniProt Q9P1W9 (whole entry, looked up): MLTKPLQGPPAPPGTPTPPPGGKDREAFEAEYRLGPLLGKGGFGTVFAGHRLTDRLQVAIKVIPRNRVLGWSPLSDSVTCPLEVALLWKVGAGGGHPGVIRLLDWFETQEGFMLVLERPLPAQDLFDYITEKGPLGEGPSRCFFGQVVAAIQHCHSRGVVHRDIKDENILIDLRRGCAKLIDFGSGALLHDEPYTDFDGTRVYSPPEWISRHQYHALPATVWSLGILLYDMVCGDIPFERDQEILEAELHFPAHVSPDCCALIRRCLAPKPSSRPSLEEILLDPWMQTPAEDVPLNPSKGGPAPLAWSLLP
Sequence of UniProt Q8IY84 (whole entry, looked up): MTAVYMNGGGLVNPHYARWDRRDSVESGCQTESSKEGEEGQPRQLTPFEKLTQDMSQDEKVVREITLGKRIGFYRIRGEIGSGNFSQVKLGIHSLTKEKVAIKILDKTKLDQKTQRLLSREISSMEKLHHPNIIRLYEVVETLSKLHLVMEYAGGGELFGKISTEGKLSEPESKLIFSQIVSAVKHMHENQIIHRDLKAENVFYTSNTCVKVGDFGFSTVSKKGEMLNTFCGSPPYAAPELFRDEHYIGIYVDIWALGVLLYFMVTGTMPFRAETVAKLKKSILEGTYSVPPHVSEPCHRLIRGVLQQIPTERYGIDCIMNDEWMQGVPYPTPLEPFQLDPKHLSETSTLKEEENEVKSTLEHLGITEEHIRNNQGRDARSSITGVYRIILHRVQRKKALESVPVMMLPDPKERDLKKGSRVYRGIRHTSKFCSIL
Sequence of UniProt Q9UF33 (whole entry, looked up): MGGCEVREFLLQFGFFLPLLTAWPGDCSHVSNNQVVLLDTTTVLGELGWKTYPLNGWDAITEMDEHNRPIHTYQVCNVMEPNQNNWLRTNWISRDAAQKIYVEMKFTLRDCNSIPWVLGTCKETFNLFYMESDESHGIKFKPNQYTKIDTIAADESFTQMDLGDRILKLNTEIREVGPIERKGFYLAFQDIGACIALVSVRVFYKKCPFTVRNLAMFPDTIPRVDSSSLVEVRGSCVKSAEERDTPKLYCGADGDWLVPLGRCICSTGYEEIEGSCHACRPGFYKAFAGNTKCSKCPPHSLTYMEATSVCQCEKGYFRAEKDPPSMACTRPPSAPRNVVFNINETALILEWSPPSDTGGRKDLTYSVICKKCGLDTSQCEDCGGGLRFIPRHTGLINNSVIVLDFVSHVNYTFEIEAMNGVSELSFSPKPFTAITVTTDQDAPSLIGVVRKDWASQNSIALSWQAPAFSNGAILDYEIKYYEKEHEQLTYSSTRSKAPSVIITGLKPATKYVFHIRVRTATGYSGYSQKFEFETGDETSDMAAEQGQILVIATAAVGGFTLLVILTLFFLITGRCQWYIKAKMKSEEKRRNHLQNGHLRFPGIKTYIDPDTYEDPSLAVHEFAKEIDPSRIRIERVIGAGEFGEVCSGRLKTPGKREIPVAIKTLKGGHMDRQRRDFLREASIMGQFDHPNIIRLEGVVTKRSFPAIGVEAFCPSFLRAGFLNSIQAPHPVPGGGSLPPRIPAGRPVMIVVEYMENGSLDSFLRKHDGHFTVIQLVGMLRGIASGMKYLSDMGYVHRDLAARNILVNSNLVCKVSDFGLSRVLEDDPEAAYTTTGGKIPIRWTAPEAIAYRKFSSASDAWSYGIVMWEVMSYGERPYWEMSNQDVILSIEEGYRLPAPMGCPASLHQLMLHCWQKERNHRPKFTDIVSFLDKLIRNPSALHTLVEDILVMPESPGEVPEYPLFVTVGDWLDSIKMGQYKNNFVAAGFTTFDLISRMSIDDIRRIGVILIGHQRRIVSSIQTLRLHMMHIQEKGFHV
Sequence of UniProt P22607 (whole entry, unmodified, looked up): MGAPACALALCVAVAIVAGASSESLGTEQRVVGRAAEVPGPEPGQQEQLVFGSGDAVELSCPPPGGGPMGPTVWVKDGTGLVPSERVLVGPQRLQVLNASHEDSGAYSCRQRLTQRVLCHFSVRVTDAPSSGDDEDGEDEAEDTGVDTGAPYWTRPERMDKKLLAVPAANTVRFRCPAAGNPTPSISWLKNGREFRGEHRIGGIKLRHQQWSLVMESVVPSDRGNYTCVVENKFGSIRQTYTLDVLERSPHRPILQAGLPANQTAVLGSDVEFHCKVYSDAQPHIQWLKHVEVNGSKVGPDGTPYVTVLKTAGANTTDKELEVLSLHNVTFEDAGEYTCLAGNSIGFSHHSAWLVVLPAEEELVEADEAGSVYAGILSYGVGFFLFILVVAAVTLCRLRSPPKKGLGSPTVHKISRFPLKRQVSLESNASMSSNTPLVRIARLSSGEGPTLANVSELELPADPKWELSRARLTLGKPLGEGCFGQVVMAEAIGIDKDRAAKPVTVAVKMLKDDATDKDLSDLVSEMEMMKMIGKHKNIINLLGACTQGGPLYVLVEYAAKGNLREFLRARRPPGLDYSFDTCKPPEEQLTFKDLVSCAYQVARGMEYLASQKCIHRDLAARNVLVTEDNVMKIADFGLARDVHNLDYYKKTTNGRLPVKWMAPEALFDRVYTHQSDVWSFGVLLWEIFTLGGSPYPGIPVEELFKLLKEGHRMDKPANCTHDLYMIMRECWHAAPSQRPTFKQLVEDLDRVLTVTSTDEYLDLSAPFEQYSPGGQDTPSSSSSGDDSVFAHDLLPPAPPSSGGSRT
Sequence of UniProt Q9H093 (whole entry, looked up): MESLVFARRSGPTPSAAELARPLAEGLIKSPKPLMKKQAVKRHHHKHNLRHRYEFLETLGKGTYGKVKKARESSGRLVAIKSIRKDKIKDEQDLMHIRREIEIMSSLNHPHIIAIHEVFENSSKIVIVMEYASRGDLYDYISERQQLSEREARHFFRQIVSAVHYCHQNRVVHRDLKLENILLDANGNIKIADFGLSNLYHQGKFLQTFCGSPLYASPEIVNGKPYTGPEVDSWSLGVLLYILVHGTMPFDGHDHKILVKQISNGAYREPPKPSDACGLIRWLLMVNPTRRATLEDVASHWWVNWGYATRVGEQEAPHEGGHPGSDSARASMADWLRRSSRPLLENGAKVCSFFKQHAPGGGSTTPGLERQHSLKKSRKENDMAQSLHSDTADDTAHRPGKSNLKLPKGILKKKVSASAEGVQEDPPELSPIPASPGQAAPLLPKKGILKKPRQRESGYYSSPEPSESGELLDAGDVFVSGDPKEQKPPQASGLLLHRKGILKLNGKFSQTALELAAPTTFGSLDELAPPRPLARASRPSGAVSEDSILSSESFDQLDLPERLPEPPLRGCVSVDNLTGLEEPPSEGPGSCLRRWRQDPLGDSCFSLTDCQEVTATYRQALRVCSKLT

Sample 1 — cell line: mouse MPNST tumor cells; method: high-content nuclear imaging; item: cell number; concentration: 10 µM; time: 12 h; notes: mean of 2 replicates; reference: plate mean; reading: higher = more cells
SMILES | nuclei count
Cc1ccc(NC(=O)C(C)C)cc1C1CCN(Cc2ccc(Oc3ccc(F)c(F)c3)cc2)CC1 | -6.16 z-score
Nc1ncnc2c1ncn2[C@@H]1O[C@H](CO)C[C@H]1O | 0.0953 z-score
CC(NCCC(c1ccccc1)c1ccccc1)c1ccccc1 (stereo not shown) | -6.47 z-score
CC1C(=O)OC2C(O)C34C5CC(C(C)(C)C)C36C(OC(=O)C6O)OC4(C(=O)O5)C12O (stereo not shown) | 0.559 z-score
CN(CCOc1ccc(-c2ccc3c(c2)OCO3)cc1C(C)(C)C)CC(=O)O | 2.26 z-score
CN(C)CCn1cc(S(=O)(=O)c2cccc(F)c2)c2cccnc21 | 1.85 z-score

Sample 2 — species: human; matrix: microsomes or S9; concentration: 2 µM; time: 0.5 h
Structure (SMILES) | remaining compound [%]
CCCC(C(=O)O)c1c(C)ncnc1-c1cc(F)c2c(c1C)CCCO2 (stereo not shown) | > 99
O=c1[nH]c2c(c(=O)n1-c1cccc(F)c1)[S+]([O-])CC2 (stereo not shown) | 92.2
CS(=O)(=O)c1ccc(-c2cc(F)c(OCC3CCNCC3)c(F)c2)cc1 | 28.5
O=C(Nc1ccc(Oc2cccnc2)nc1)c1c[nH]c2ccccc12 | 83.9
CS(=O)(=O)N1CCN(CCCOc2ccc3c(c2)CN(Cc2cccnc2)C3=O)CC1 | 62
CCCOc1ccc2c(c1)CNC(CCCCN)C(=O)N2CCc1ccc(OC)cc1 (stereo not shown) | 90.8
O=C(CCc1ccc(C(F)(F)F)cc1)N1C2C=CCC1CC2 (stereo not shown) | 13.9
CCn1nc(N2CCCC(NC(=O)c3cn[nH]c3)C2)ccc1=O (stereo not shown) | 87.5

Sample 3 — effect on: enzyme activity; mode: inhibitor; concentration: 0.5 µM; reference: control
Target: MAP/microtubule affinity-regulating kinase 3 (MARK3, Homo sapiens, UniProt P27448)
Sequence of UniProt P27448 (whole entry, looked up): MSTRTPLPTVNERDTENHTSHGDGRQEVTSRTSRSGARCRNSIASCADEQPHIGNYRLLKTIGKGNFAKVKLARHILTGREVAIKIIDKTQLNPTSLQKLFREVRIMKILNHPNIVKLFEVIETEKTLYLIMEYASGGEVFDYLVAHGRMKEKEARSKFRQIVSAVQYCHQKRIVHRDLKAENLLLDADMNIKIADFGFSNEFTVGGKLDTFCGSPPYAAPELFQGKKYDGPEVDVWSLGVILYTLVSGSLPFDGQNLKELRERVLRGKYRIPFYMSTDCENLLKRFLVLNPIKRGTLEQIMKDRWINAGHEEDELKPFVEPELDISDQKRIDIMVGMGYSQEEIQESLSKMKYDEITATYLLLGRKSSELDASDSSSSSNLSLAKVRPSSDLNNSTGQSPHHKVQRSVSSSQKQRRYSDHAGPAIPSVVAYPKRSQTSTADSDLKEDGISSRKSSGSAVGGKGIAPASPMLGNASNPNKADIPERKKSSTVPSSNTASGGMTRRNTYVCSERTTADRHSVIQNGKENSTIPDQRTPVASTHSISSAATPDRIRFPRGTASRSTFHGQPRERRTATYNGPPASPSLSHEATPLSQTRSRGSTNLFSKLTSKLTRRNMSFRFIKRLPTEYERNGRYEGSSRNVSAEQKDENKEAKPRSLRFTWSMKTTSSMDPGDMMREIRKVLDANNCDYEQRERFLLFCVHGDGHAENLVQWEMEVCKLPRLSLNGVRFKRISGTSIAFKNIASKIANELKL
SMILES | remaining activity
CNC(=O)c1cc(Oc2ccc(NC(=O)Nc3ccc(Cl)c(C(F)(F)F)c3)cc2)ccn1 | 103%
Cc1cccc(-c2[nH]c(C(C)(C)C)nc2-c2ccc3c(c2)OCO3)n1 | 73.9%
Cc1ccc(Nc2nccc(N(C)c3ccc4c(C)n(C)nc4c3)n2)cc1S(N)(=O)=O | 96.6%
Nc1[nH]nc2nc3ccccc3nc12 | 102%
NCCNc1ncc(C(N)=O)c(Nc2cccc(C(F)(F)F)c2)n1 | 86.7%
Nc1ccc2ncnc(NCCc3ccc(Oc4ccccc4)cc3)c2c1 | 86.4%
O=C1NC(=O)C(c2cn(CCCn3ccnc3)c3ccccc23)=C1Nc1ccccc1 | 92.1%
O=C(CCCc1ccc(-c2ccccc2F)cc1)Nc1ccc(O)cc1 | 101%
Nc1ncnc2n[nH]c(Nc3ccc(F)cc3)c12 | 92.5%
COc1ccc(C(=O)Nc2sc3c(c2C(N)=O)CCCC3)cc1OC | 94.1%
CN(C)c1ccc(C=C2C(=O)Nc3ccccc32)cc1 | 101%
COc1cc2ncnc(Nc3ccc(Oc4ccccc4)cc3)c2cc1OC | 108%
Cc1ccc(NC(=O)c2ccc(CN3CCN(C)CC3)cc2)cc1Nc1nc(-c2cccnc2)cs1 | 100%
Cc1nc(-c2ccccc2)c(-c2ccncc2)o1 | 107%
COc1cc2nccc(Oc3ccc(NC(=S)NC(=O)c4ccccc4C)cc3)c2cc1OC | 79.2%

Sample 4 — SMILES: CCC(=N\O)/C(C)=C/c1ccc(F)cc1; effect on: cell-free assay; method: competition with immobilised ligand; concentration: 1 µM
target | remaining binding [%]
PIM2 (Homo sapiens, UniProt Q9P1W9) | 83
IRAK4 (Homo sapiens, UniProt Q9NWZ3) | 100
RET (Homo sapiens, UniProt P07949) | 100
NIM1K (Homo sapiens, UniProt Q8IY84) | 94
NUAK2 (Homo sapiens, UniProt Q9H093) | 73
CDK8 (Homo sapiens, UniProt P49336) | 100
EPHA6 (Homo sapiens, UniProt Q9UF33) | 67
FGFR3 (Homo sapiens, UniProt P22607, G697C) | 84

Some of these lines once more (sample 3):
SMILES | remaining activity
Cc1cccc(-c2[nH]c(C(C)(C)C)nc2-c2ccc3c(c2)OCO3)n1 | 73.9%
Cc1ccc(NC(=O)c2ccc(CN3CCN(C)CC3)cc2)cc1Nc1nc(-c2cccnc2)cs1 | 100%
O=C(CCCc1ccc(-c2ccccc2F)cc1)Nc1ccc(O)cc1 | 101%
CN(C)c1ccc(C=C2C(=O)Nc3ccccc32)cc1 | 101%
Cc1nc(-c2ccccc2)c(-c2ccncc2)o1 | 107%
